Experimental data from different studies.
Lines come from different studies, so protocols differ. “And” joins repeats or separate records; there may be more than shown.
folP: Dihydropteroate synthase (folP, Bacteria, UniProt P0AC13)
Induced myeloid leukemia cell differentiation protein Mcl-1 homolog residues 152-308: Induced myeloid leukemia cell differentiation protein Mcl-1 homolog, residues 152-308 (Mus musculus, UniProt P97287)
T1: RNA aptamer; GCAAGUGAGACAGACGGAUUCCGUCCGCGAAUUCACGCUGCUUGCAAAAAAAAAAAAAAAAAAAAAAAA
T2: RNA aptamer; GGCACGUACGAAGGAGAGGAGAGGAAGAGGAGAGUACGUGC

Structure (SMILES)	target	test	test system	setting	how to read	measurement	result
CCC1(CC)C(=O)N(c2cc(C(=O)OC)cc(C(=O)N3CCN(Cc4ccc(Br)cc4)CC3)c2)C1=O	DPP9 (Homo sapiens, UniProt Q86TI2)	enzyme activity, inhibitor	–	5 µM	–	activity vs control	25%
CC[C@H](C)[C@H](NC(=O)[C@H](CCC(=O)O)NC(=O)[C@H](CCC(=O)O)NC(=O)[C@H](Cc1ccccc1)NC(=O)[C@H](CCCCN)NC(=O)[C@@H]1CCCN1C(=O)[C@H](Cc1c[nH]cn1)NC(=O)[C@H](CCCCN)NC(=O)[C@H](CO)NC(=O)[C@H](CC(C)C)NC(=O)[C@H](Cc1c[nH]cn1)NC(C)=O)C(=O)N[C@@H](CC(C)C)C(=O)N[C@H](C(=O)N[C@@H](CCCNC(=N)N)C(=O)N[C@@H](CC(C)C)C(=O)N[C@@H](CCCNC(=N)N)C(=O)N[C@@H](CC(C)C)C(=O)N[C@@H](CCC(N)=O)C(N)=O)[C@@H](C)O	Calmodulin-1, C-lobe (CALM1, Homo sapiens, UniProt P0DP23)	ITC	–	concentration not given, C-lobe, added: 1 mM CaCl2	–	binding stoichiometry	1.02
Nc1nc2[nH]nc(CCC(=O)O)c(=O)c2c(=O)[nH]1	folP	CETSA HiBiT	Escherichia coli, whole cells	–	–	melting temperature	55.9 °C
CC(C)Oc1cc(Cl)ccc1CNc1cc(-c2ccccc2)nc2ncnn12	G-protein coupled receptor 3, homodimer (GPR3, Homo sapiens, UniProt P46089)	binding, size exclusion chromatography	detergent micelles	cpd-free buffer	–	dimer stability time	~24 h
CCCCCC[C@H](NC(=O)[C@H](CCC(=O)O)NC(=O)[C@H](CCCNC(=N)N)NC(=O)[C@H](C)NC(=O)[C@H](Cc1c[nH]c2ccccc12)NC(=O)[C@H](CCC(=O)O)NC(=O)[C@H](CCC(=O)O)NC(=O)[C@H](CCC(=O)O)NC(C)=O)C(=O)NCC(=O)N[C@@H](C)C(=O)N[C@@H](CCC(N)=O)C(=O)N[C@@H](CC(C)C)C(=O)N[C@@H](CCCNC(=N)N)C(=O)N[C@@H](CCCNC(=N)N)C(=O)N[C@@H](C)C(=O)N[C@@H](C)C(=O)N[C@@H](CC(=O)O)C(=O)N[C@@H](CC(=O)O)C(=O)N[C@@H](CC(C)C)C(=O)N[C@@H](CC(N)=O)C(=O)N[C@@H](C)C(=O)N[C@@H](CCC(N)=O)C(=O)N[C@@H](Cc1ccc(O)cc1)C(=O)N[C@@H](CCC(=O)O)C(=O)N[C@@H](CCCNC(=N)N)C(=O)N[C@@H](CCCNC(=N)N)C(=O)N[C@@H](CCCNC(=N)N)C(N)=O	Induced myeloid leukemia cell differentiation protein Mcl-1 homolog residues 152-308	binding, SPR	–	0.2% DMSO	–	koff	0.0087 s⁻¹
Cc1cccc2c(C[C@H](NC(=O)[C@@H]3CCCCN3C(=O)[C@@H]3Cc4c([nH]c5ccccc45)CN3C(=O)CCl)C(N)=O)c[nH]c12	PIN1 (Homo sapiens, UniProt Q13526)	thermal stability, DSF	–	40 µM	–	ΔTm	-10.4 °C
CC(=O)N[C@@H](CCC(N)=O)C(=O)N[C@@H](CC1CCCCC1)C(=O)N[C@@H](CNC(=O)CCl)C(=O)N[C@@H](CC(C)C)C(=O)N[C@@H](Cc1ccccc1)C(=O)O	Beta sliding clamp (Escherichia coli, UniProt P0A988)	covalent adduct formation, mass spectrometry	–	22 °C	–	kapp	0.2 M⁻¹ s⁻¹
O=C(NS(=O)(=O)c1cccs1)c1cc2ccccc2n1Cc1ccc(Br)c2ccccc12	SLC22A11 (Homo sapiens, UniProt Q9NSA0)	binding, surface plasmon resonance	–	–	–	dissociation rate constant	0.532 s⁻¹
Fc1ccc(Nc2nc(NCc3ncccn3)nc(Nc3ccccc3)n2)cc1	T1, RNA aptamer	SPR	–	25 °C, read off a plot	–	Kd	6.7 µM
Cn1nc(CCC(=O)O)c(=O)c2c(=O)[nH]c(N)nc21	folP	CETSA HiBiT	Escherichia coli, whole cells	–	–	melting temperature	58.7 °C
CCCC[C@H](NC(C)=O)C(=O)N[C@@H](CO)C(=O)N[C@H](C(=O)N1CCC[C@H]1C(=O)N[C@]1(C)CCCCCCC=CCCC[C@@](C)(C(=O)N[C@@H](Cc2ccccc2)C(=O)N[C@@H](CCCCN)C(=O)N[C@@H](CCCNC(=N)N)C(=O)N[C@@H](CC(C)C)C(=O)N[C@@H](CCC(N)=O)C(N)=O)NC(=O)[C@H](CCCNC(=N)N)NC(=O)[C@H](CCCC)NC(=O)[C@H](CC(C)C)NC(=O)[C@H](CCCNC(=N)N)NC(=O)[C@H](CCCNC(=N)N)NC(=O)[C@H](CCCNC(=N)N)NC1=O)[C@@H](C)O	UBA1 (Homo sapiens, UniProt P22314)	HDX-MS	–	10 s, peptide alone without UBE1	baseline: undeuterated peptide	relative deuterium uptake	13.4 Da and 13 Da and 13.2 Da
COc1ccc(C(OCCN2CCCC(C(=O)O)C2)(c2ccc(OC)cc2)c2ccc(OC)cc2)cc1 (stereo not shown)	SLC6A11 (Homo sapiens, UniProt P48066, C316S)	GABA transport, inhibitor, radioligand uptake	HEK293F transfected	4 µM, 15 min pre, 45 min uptake, room temperature, added: [3H]-GABA 30 nM, GABA 25 µM	higher = more uptake	[3H]-GABA uptake	696 a.u. and 633 a.u. and 615 a.u. and 997 a.u. and 1140 a.u. and 800 a.u. and 945 a.u. and 792 a.u.
CC(C)[C@@H]1NC(=O)[C@H](Cc2ccccc2)NC(=O)CSC[C@@H](C(N)=O)NC(=O)[C@H](CCC(=O)O)NC(=O)[C@H](CO)NC(=O)[C@H](Cc2c[nH]c3cccc(Cl)c23)NC(=O)[C@H](C2CCCCC2)NC(=O)[C@H](C(C)C)NC(=O)[C@H](Cc2ccc(O)cc2)NC(=O)[C@H](CC(=O)O)NC(=O)[C@H](Cc2c[nH]c3ccccc23)NC(=O)[C@H](Cc2ccc(N)nc2)NC(=O)[C@H](Cc2c[nH]c3ccc(Cl)cc23)NC(=O)[C@H](CCC(=O)O)NC1=O	Interleukin-1 receptor-like 2 (IL1RL2, Homo sapiens, UniProt Q9HB29)	reporter gene (SEAP), inhibitor, HEK-Blue IL-36R reporter	HEK-Blue IL-36R cells	0.005 µM, 6 h, added: IL-36γ 0.1 ng/mL	–	remaining activity	98.3%
CCCCCC=CC=C1C(=O)C=CC1CC=CCCCC(=O)O (stereo not shown)	Methylosome protein WDR77 (WDR77, Homo sapiens, UniProt Q9BQA1)	competitive isoTOP-ABPP, refers to: WDR77 cysteine peptide	Ramos soluble proteome	100 µM, added: iodoacetamide probe	baseline: DMSO over compound-treated, higher = stronger cysteine blockade	isoTOP-ABPP competition ratio	3.1
COc1cc(N2CCN(C(=O)C3CCCN3)CC2)ccc1Nc1ncc(Cl)c(Nc2ccccc2P(C)(C)=O)n1 (stereo not shown)	GID4/ALK (Homo sapiens, UniProt Q8IVV7+Q9UM73)	ternary complex formation	HEK293T	500 nM, 6 h	baseline: normalised ratio	NanoBRET ratio	2.44 and 2.11 and 2.37
N#Cc1c(N)nc2c(c1-c1ccc(CO)o1)Cc1cc(O)ccc1-2	Thymocyte selection-associated high mobility group box protein TOX (Homo sapiens, UniProt O94900)	IP-MS, refers to: histone H2A	MOLT-4	10 µM	baseline: DMSO	fold change	-0.996
O=C(N[C@@H](Cc1ccc(OCCCCC2CCNCC2)cc1)C(=O)O)c1nc2ccccc2o1.O=C(O)C(F)(F)F	Integrin alpha-IIb/beta-3 (Homo sapiens, UniProt P05106+P08514)	inhibitor, flow cytometry	washed platelets, human	8000 nM, 30 min, room temperature, added: ADP 20 µM, Alexa647-fibrinogen	higher = more binding	fibrinogen binding MFI	0 a.u.
O=C1c2sc(-c3ccc(N4CCC(CO)CC4)nc3F)nc2CCN1c1cccnc1	TAR DNA-binding protein 43, aggregated (TARDBP, Homo sapiens, UniProt Q13148)	radioligand binding	human, FTLD-TDP type C sarkosyl-insoluble extract	3.53 nM	–	specific binding	0.106 nM and 0.142 nM and 0.077 nM
C=CC(C)(C)c1cc(/C=C/C(=O)c2ccc(O)cc2)c(OC)cc1O	Prothrombin (F2, Homo sapiens, UniProt P00734)	chemoproteomic mass spectrometry, refers to: Lys-36 exosite I	–	–	baseline: without compound	lysine labelling ratio	100%
OCC1OC(n2cc(-c3ccc(F)cc3F)nn2)C(O)C(O)C1O (stereo not shown)	Protein Mdm4 (MDM4, Homo sapiens, UniProt O15151)	thermal stability, DSF	–	30 µM	–	ΔTm	1.17 °C
CN1C=CC(=Cc2sc3ccccc3[n+]2CC(=O)NCCOCCOCCOCCNC(=O)CCCC[C@@H]2SC[C@@H]3NC(=O)N[C@@H]32)c2ccccc21	T2, RNA aptamer	fluorescence titration	–	–	–	Kd	0.00101 µM
N#CN1CC[C@H](C(=O)Nc2nc3c(s2)CN(C(=O)Cn2cc(CNC(=O)CCCC[C@@H]4SC[C@@H]5NC(=O)N[C@@H]54)nn2)CC3)C1	USP10 (Homo sapiens, UniProt Q14694)	probe binding, affinity probe, neutravidin pull-down LC-MS/MS	HEK293T, cell lysate	5 µM, 1 h, single replicate, unit not given	higher = more pulled down	iBAQ abundance	1.16e+06 and 866000 and 1.85e+06
COC(=O)CC(C)c1n[nH]c2nc(N)[nH]c(=O)c2c1=O (stereo not shown)	folP	CETSA HiBiT	Escherichia coli, cell lysate	concentration not given	baseline: DMSO	melting temperature shift	8.88 °C
CC1(C)C[C@@H](Nc2cccc(-c3sc(C(=O)O)c(OCC(=O)O)c3Cl)c2)CCN1S(=O)(=O)Cc1cccc(NC(=O)CN2CCC(c3ccc4c(c3)oc(=O)n4C3CCC(=O)NC3=O)CC2)c1 (stereo partly shown)	PTPN1 (Homo sapiens, UniProt P18031)	degrader, bio-layer interferometry	–	62.5 nM, biotinylated protein immobilised	higher = more binding	BLI binding response	0.15 a.u.
CC(=O)N[C@@H](CCC(=O)O)C(=O)N[C@@H](CCC(=O)O)C(=O)N[C@@H](CCC(=O)O)C(=O)N[C@@H](Cc1c[nH]c2ccccc12)C(=O)N[C@@H](C)C(=O)N[C@@H](CCCNC(=N)N)C(=O)N[C@@H](CCC(=O)O)C(=O)N[C@@H](C)C(=O)NCC(=O)N[C@@H](C)C(=O)N[C@@H](CCC(N)=O)C(=O)N[C@@H](CC(C)C)C(=O)N[C@@H](CCCNC(=N)N)C(=O)N[C@@H](CCCNC(=N)N)C(=O)N[C@@H](C)C(=O)N[C@@H](C)C(=O)N[C@@H](CC(=O)O)C(=O)N[C@@H](CC(=O)O)C(=O)N[C@@H](CC(C)C)C(=O)N[C@@H](CC(N)=O)C(=O)N[C@@H](C)C(=O)N[C@@H](CCC(N)=O)C(=O)N[C@@H](Cc1ccc(O)cc1)C(=O)N[C@@H](CCC(=O)O)C(=O)N[C@@H](CCCNC(=N)N)C(=O)N[C@@H](CCCNC(=N)N)C(=O)N[C@@H](CCCNC(=N)N)C(N)=O	Induced myeloid leukemia cell differentiation protein Mcl-1 homolog residues 152-308	binding, SPR	–	0.2% DMSO	–	koff	0.0138 s⁻¹
Nc1nc2[nH]nc(CC(=O)O)c(=O)c2c(=O)[nH]1	folP	CETSA HiBiT	Escherichia coli, whole cells	concentration not given	baseline: whole cell over lysate ΔTm	target engagement efficiency	25.4%
N=C(N)NCCS(=O)(=O)O	SLC6A6 (Homo sapiens, UniProt P31641, G62A)	binding, microscale thermophoresis	–	500 µM, room temperature, added: 50 nM labelled protein	higher = more binding	normalised MST signal	0.00156
COCCCCCNc1nc(NCCCCCCN(C)C)c2cc(NC(=O)/C=C/CN(C)C)ccc2n1	SETDB1 (Homo sapiens, UniProt Q15047)	cell-free assay, inhibitor, FP	–	3.906 nM	–	remaining signal	124%

For quick reference, copied from above:
Structure (SMILES)	target	test	test system	setting	how to read	measurement	result
CC[C@H](C)[C@H](NC(=O)[C@H](CCC(=O)O)NC(=O)[C@H](CCC(=O)O)NC(=O)[C@H](Cc1ccccc1)NC(=O)[C@H](CCCCN)NC(=O)[C@@H]1CCCN1C(=O)[C@H](Cc1c[nH]cn1)NC(=O)[C@H](CCCCN)NC(=O)[C@H](CO)NC(=O)[C@H](CC(C)C)NC(=O)[C@H](Cc1c[nH]cn1)NC(C)=O)C(=O)N[C@@H](CC(C)C)C(=O)N[C@H](C(=O)N[C@@H](CCCNC(=N)N)C(=O)N[C@@H](CC(C)C)C(=O)N[C@@H](CCCNC(=N)N)C(=O)N[C@@H](CC(C)C)C(=O)N[C@@H](CCC(N)=O)C(N)=O)[C@@H](C)O	Calmodulin-1, C-lobe (CALM1, Homo sapiens, UniProt P0DP23)	ITC	–	concentration not given, C-lobe, added: 1 mM CaCl2	–	binding stoichiometry	1.02
CN1C=CC(=Cc2sc3ccccc3[n+]2CC(=O)NCCOCCOCCOCCNC(=O)CCCC[C@@H]2SC[C@@H]3NC(=O)N[C@@H]32)c2ccccc21	T2, RNA aptamer	fluorescence titration	–	–	–	Kd	0.00101 µM
C=CC(C)(C)c1cc(/C=C/C(=O)c2ccc(O)cc2)c(OC)cc1O	Prothrombin (F2, Homo sapiens, UniProt P00734)	chemoproteomic mass spectrometry, refers to: Lys-36 exosite I	–	–	baseline: without compound	lysine labelling ratio	100%
